Published values of several laboratories.
Lines come from different studies, so protocols differ. Several values in a cell are separate wells, animals, samples, runs or records. ± marks the error that the study gave.
FFAR4: Free fatty acid receptor 4 (FFAR4, Homo sapiens, UniProt Q5NUL3)
UniProt Q5NUL3, sequence (whole entry, looked up): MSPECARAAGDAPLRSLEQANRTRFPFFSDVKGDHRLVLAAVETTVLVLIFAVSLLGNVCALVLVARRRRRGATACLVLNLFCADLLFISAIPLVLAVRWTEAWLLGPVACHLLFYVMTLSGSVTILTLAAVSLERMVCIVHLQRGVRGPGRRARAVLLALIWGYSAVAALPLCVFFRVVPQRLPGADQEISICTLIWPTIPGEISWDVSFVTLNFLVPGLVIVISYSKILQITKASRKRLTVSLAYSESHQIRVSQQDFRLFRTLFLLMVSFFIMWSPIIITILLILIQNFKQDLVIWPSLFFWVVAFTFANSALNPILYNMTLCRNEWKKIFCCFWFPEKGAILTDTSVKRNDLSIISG
Trypanothione synthetase: Trypanothione synthetase (Trypanosoma brucei brucei, UniProt Q8IEX1)
USP51: Ubiquitin carboxyl-terminal hydrolase 51 (USP51, Homo sapiens, UniProt Q70EK9)
UniProt Q70EK9, sequence (whole entry, looked up): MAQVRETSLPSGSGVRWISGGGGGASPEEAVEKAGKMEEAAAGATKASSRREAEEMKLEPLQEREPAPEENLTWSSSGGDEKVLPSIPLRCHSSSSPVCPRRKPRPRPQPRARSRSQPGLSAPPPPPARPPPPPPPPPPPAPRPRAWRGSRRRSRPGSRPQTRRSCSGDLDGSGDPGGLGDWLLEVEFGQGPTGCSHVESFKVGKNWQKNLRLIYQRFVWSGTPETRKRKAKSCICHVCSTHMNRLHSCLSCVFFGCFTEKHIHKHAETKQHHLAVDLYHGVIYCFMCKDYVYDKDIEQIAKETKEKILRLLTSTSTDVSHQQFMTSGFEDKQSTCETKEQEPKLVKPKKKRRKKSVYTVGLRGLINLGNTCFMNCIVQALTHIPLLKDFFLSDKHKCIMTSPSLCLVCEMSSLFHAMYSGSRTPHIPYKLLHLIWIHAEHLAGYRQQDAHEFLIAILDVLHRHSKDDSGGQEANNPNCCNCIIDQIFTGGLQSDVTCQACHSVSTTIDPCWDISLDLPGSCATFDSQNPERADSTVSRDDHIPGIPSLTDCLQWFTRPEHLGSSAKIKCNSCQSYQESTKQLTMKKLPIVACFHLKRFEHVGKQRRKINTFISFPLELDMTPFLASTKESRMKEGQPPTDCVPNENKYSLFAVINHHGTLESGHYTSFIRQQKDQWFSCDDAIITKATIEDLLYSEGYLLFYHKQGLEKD
Alpha-amylase: Alpha-amylase (Bos taurus, UniProt Q3MHH8)
LRRC8C E6A part LRRC8A IL1 chimera: Volume-regulated anion channel subunit LRRC8C, part LRRC8A IL1 chimera (LRRC8C, Homo sapiens, UniProt Q8TDW0, E6A)
CGAS catalytic domain; with DNA: Cyclic GMP-AMP synthase, catalytic domain; with DNA (CGAS, Homo sapiens, UniProt Q8N884)
UniProt Q8N884, sequence (whole entry, looked up): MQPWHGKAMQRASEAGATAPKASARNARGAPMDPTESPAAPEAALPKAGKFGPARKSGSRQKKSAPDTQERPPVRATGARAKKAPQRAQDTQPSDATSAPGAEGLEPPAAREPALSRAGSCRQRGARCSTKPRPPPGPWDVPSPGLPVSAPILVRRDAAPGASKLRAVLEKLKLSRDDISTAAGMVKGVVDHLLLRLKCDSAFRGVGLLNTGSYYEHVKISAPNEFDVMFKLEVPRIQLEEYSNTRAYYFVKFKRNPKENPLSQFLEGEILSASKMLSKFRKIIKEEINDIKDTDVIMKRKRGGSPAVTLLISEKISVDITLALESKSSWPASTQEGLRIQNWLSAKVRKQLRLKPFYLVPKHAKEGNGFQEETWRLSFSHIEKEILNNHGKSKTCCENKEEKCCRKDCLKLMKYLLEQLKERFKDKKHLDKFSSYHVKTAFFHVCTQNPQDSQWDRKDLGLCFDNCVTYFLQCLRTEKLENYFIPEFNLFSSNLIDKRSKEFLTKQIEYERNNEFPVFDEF
HRH1: Histamine H1 receptor (HRH1, Homo sapiens, UniProt P35367)
UniProt Q96D96, sequence (whole entry, looked up): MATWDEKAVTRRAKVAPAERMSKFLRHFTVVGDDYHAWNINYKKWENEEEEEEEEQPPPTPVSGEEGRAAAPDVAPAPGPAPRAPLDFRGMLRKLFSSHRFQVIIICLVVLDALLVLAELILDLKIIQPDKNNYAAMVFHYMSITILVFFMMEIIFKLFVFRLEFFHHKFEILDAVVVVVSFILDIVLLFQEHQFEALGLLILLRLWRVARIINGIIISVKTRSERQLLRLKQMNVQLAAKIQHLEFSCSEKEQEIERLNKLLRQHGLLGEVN
UniProt O43497, sequence (whole entry, looked up): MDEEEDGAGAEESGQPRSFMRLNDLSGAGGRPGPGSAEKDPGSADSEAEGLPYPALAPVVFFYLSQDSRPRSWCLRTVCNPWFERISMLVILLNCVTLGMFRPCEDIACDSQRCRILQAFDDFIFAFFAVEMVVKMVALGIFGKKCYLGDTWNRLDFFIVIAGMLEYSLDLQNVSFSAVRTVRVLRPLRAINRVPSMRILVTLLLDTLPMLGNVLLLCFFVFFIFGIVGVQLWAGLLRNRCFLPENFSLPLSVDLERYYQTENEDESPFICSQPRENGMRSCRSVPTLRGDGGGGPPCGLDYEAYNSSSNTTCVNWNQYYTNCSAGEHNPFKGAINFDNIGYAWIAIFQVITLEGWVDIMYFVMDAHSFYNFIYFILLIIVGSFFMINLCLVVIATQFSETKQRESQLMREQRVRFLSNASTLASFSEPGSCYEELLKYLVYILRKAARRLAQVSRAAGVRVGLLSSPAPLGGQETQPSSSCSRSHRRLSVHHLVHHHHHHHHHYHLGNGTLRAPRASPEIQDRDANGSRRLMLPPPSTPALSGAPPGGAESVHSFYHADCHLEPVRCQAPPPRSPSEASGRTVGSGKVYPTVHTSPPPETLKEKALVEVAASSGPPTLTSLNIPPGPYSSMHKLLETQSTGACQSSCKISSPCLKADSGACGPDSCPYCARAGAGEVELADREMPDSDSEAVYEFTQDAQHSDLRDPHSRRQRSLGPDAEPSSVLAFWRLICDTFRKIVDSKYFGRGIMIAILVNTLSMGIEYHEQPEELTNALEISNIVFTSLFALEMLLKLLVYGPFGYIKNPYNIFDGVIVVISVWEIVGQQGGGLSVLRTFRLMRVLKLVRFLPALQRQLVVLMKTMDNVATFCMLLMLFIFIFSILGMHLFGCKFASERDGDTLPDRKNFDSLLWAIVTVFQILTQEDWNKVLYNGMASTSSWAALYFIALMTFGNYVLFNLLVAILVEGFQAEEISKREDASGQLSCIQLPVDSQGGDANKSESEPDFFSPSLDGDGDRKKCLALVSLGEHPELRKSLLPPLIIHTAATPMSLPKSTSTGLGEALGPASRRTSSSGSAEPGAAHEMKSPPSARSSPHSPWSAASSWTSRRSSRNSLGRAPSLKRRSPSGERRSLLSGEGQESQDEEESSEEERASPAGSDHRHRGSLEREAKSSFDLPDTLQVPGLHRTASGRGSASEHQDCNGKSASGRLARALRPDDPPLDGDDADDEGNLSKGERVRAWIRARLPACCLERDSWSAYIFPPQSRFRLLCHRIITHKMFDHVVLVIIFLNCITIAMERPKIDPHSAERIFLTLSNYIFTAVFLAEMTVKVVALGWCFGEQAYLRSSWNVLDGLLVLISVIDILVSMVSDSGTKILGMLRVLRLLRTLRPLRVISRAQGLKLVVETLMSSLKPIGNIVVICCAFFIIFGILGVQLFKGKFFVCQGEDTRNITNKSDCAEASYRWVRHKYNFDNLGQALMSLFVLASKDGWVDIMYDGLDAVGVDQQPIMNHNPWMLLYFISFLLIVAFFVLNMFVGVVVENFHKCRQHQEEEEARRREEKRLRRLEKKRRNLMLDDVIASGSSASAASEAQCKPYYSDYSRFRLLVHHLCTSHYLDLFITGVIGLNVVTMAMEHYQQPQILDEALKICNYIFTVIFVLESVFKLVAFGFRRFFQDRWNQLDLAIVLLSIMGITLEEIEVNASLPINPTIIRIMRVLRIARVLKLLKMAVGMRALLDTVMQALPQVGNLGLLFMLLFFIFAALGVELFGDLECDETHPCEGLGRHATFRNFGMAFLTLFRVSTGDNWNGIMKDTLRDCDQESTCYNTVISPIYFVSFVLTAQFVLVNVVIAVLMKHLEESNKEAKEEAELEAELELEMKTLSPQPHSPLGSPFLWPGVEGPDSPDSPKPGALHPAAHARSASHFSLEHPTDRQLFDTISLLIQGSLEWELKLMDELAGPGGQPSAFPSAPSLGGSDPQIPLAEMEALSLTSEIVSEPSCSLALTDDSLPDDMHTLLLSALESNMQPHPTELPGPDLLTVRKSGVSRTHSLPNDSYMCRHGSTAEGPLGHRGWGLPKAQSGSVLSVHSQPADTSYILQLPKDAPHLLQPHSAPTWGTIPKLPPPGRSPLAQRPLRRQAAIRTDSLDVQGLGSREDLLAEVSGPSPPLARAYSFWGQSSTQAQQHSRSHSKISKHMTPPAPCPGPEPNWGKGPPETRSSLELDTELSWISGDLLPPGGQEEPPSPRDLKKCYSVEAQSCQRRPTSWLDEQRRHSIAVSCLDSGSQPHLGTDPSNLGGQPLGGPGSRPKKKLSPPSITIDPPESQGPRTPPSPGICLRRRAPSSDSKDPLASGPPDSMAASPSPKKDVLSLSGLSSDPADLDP
UniProt O60658, sequence (whole entry, looked up): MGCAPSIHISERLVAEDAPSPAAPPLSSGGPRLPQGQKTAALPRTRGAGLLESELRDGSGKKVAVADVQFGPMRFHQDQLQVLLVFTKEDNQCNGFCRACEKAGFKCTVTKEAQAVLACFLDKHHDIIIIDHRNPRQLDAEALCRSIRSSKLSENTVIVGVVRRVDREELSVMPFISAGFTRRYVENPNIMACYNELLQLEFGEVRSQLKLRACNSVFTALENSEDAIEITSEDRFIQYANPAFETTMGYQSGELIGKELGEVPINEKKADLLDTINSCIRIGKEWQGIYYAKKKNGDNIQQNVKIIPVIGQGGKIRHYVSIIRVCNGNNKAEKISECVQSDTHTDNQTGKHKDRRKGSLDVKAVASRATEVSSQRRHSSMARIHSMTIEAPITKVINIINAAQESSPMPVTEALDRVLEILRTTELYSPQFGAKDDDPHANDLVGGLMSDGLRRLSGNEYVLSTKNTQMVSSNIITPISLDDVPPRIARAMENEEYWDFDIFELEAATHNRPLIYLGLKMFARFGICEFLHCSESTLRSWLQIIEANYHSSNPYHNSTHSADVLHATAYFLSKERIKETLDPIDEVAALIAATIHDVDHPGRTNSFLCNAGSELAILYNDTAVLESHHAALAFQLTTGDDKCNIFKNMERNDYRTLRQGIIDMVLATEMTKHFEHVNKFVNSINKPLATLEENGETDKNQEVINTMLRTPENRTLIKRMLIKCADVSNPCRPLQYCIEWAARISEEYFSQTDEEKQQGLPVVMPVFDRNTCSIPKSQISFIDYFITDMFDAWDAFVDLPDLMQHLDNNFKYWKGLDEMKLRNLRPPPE

CCCCCCCNc1[nH]c(=O)[nH]c(=O)c1N=O  inhibition (FFAR4; antagonist, β-arrestin recruitment; CHO cells; 10 µM): 27 ± 5%
O=C(CN1C(=O)Cc2c([nH]c3ccc(Br)cc23)-c2ccc(Cl)cc21)N1CCN(c2ncccn2)CC1  inhibition (Trypanothione synthetase; enzyme activity, inhibitor, BIOMOL Green; 30 µM): 27.3 ± 3.9%
CC(C)c1noc2ncc(C(=O)c3ccccc3O)cc12  inhibition (CACNA1G (Homo sapiens, UniProt O43497); ion current, inhibitor, whole-cell patch clamp; 10 µM): 9.06% and 4% and 17.8% and 3.22% and 12.5%
O=C1C[C@@H](c2ccc(O)cc2)Oc2cc(O)cc(O)c21  inhibition (USP51; inhibitor; 1 µM, 1 h preincubation, with: Ub-AMC 250 nM): 69%
[2H]c1cc(C)c(NC(=O)c2cnc(Nc3cc(N4CCC(O)CC4)nc(C)n3)s2)c(Cl)c1  inhibition (BMX (Homo sapiens, UniProt P51813); 0.001 µM): > 50%
CC1=NCCNC(=O)C1=NNc1ccc(S(N)(=O)=O)cc1  inhibition (Alpha-amylase; enzyme activity, inhibitor, glucose oxidase; 500 µg/mL, with: dextrin): 15.9%
CCN1CCN(Cc2ccc(NC(=O)c3ccc(C)c(/C=C/c4cnc5[nH]ccc5c4OC)c3)cc2C(F)(F)F)CC1  inhibition (CAMKK2 (Homo sapiens, UniProt Q96RR4); A-375; 0.05 µM): -23.4%
CC(C)(C)OC(=O)N1CCN(CCNC(=O)CN2C(=O)Cc3c([nH]c4ccc(Br)cc34)-c3ccc(Cl)cc32)CC1  inhibition (Trypanothione synthetase; enzyme activity, inhibitor, BIOMOL Green; 30 µM): 24.8 ± 3.6%
O=C(Nc1cccc2c(=O)cc(-c3nnn[nH]3)oc12)c1ccc(OCCCCc2ccccc2)cc1  inhibition (LRRC8C E6A part LRRC8A IL1 chimera; ion current, inhibitor, whole-cell patch clamp; HCT LRRC8-/- cells; 1 µM, -100 mV): 74.2% and 80.5% and 66.8% and 60.2% and 59.4%
C=C1C(=O)O[C@@H]2[C@H]3O[C@]3(C)CC/C=C(\C)CC[C@@H]12  inhibition (USP51; deubiquitinase activity, inhibitor; 5 µM, 1 h preincubation, with: 250 nM Ub-AMC): 27%
CC(C)CCCCCNc1cc(=O)[nH]c(=O)[nH]1  inhibition (FFAR4; antagonist, β-arrestin recruitment; CHO cells; 10 µM): 21 ± 5%
NCCNC(=O)CN1C(=O)Cc2c([nH]c3ccc(Br)cc23)-c2ccc(Cl)cc21  inhibition (Trypanothione synthetase; enzyme activity, inhibitor, BIOMOL Green; 30 µM): 27.3 ± 5.9%
Cc1nn(-c2nc3c(F)cc(F)cc3s2)c(O)c1C(c1ccc(C(F)(F)F)cc1)c1c(C)nn(-c2nc3c(F)cc(F)cc3s2)c1O  inhibition (CGAS catalytic domain; with DNA; cGAS phase separation, inhibitor; 6.25 µM): 59.9%
Cc1cc(-c2ccnc3[nH]cc(F)c23)cc(F)c1[C@@]1(O)[C@H](C)CN(C(=O)CN)C[C@@H]1C  inhibition (ROCK1 (Homo sapiens, UniProt Q13464); ATP probe binding, KiNativ; HEK293T cell lysate; 0.1 µM): 16.8%
CC(C)(C)OC(=O)NCCCCNC(=O)CN1C(=O)Cc2c([nH]c3ccc(Br)cc23)-c2ccc(Cl)cc21  inhibition (Trypanothione synthetase; enzyme activity, inhibitor, BIOMOL Green; 30 µM): 27.9 ± 4.6%
CC(C)(C)CNc1cc(=O)[nH]c(=O)[nH]1  inhibition (FFAR4; antagonist, β-arrestin recruitment; CHO cells; 10 µM, with: 4 µM TUG-891): 23 ± 6%
CC1=NN(c2cccc(C)c2)C(=O)C1=NNc1ccc(S(N)(=O)=O)cc1  inhibition (Alpha-amylase; enzyme activity, inhibitor, glucose oxidase; 200 µg/mL, with: dextrin): 22.3%
Cn1cc(-c2cnc3ccc(NC(=O)Nc4ccc(F)c(Br)c4)cc3n2)cn1  inhibition (TBK1 (Homo sapiens, UniProt Q9UHD2); kinase binding, KiNativ profiling, measured: Lys1 peptide; PANC-1 lysate; 5 µM): 4%
CN(C(=O)n1cnc(-c2ccc[n+]([O-])c2)c1)C1CCCCC1  inhibition (Maoa (Rattus norvegicus, UniProt P21396); 10 µM): 1.02%
Cc1nn(-c2nc3c(F)cc(F)cc3s2)c(O)c1C(c1ccccc1C(F)(F)F)c1c(C)nn(-c2nc3c(F)cc(F)cc3s2)c1O  inhibition (CGAS catalytic domain; with DNA; cGAS phase separation, inhibitor; 100 µM): 90.1%
CC1=NN(c2cccc([N+](=O)[O-])c2)C(=O)C1=NNc1ccc(S(N)(=O)=O)cc1  inhibition (Alpha-amylase; enzyme activity, inhibitor, glucose oxidase; 50 µg/mL, with: dextrin): 6.53%
CN1CCN(c2cc(-c3ccncc3)c(-c3ccc4ccccc4c3)nn2)CC1  inhibition (Glucagon receptor (GCGR, Homo sapiens, UniProt P47871); antagonist, FLIPR; 10 µM): 23.6%
COc1cc(C(=O)OCCCN2CCCN(CCCOC(=O)c3cc(OC)c(OC)c(OC)c3)CC2)cc(OC)c1OC  inhibition (Equilibrative nucleoside transporter 2 (Homo sapiens, UniProt Q14542); nucleoside transport, inhibitor; MDCKII cells expressing ENT2; 316 µM, with: adenosine): 97.1% and 97.2%
CCNNC(=O)c1ccc(CN(CC(=O)NCc2ccccc2)C(=O)c2ccc(N(C)C)cc2)cc1  inhibition (MMP9 (Homo sapiens, UniProt P14780); enzyme activity; 10 µM): no inhibition
Cn1cc(-c2ccc(-c3cncc(Cl)c3N3CCC4(CCNC4=O)CC3)cc2)cn1  log2 fold change (COLO 205; gene expression, microarray, measured: VAV3 mRNA; concentration not given, 2 h; relative to: untreated cells): -2.03
O=C(NO)c1ccc(CN2CCCCc3ccccc32)c(F)c1  inhibition (benzodiazepine site rat brain; radioligand binding; 10 µM): 18.1%
CC[C@]12CCCN3CCc4c([nH]c5ccccc45)[C@]31N(Cc1cn(Cc3ccccc3)nn1)C(=O)C2  inhibition (HRH1; antagonist, PathHunter; 20 µM): 17%
COc1cc(C(=O)NS(=O)(=O)c2ccccc2C)ccc1Cc1cn(C)c2ccc(NC(=O)OC3CCCC3)cc12  inhibition (LRRC8C E6A part LRRC8A IL1 chimera; ion current, inhibitor, whole-cell patch clamp; HCT LRRC8-/- cells; 0.03 µM, +100 mV): 8.27% and 15.6% and 11.6% and 27.5%
O=c1c(O)c(-c2ccc(O)c(O)c2)oc2cc(O)cc(O)c12  inhibition (USP51; inhibitor; 1 µM, 1 h preincubation, with: Ub-AMC 250 nM): 70%
CC1=NN(c2ccccc2)C(=O)C1=NNc1ccc(S(N)(=O)=O)cc1  inhibition (Alpha-amylase; enzyme activity, inhibitor, glucose oxidase; 100 µg/mL, with: dextrin): 23%
O=c1cc(NCc2ccccc2)[nH]c(=O)[nH]1  inhibition (FFAR4; antagonist, β-arrestin recruitment; CHO cells; 10 µM): 37 ± 5%
COc1ccc(F)cc1C(=O)NCc1ccc(-c2nn([C@@H](C)C(F)(F)F)c(N)c2C(N)=O)cc1  inhibition (STK39 (Homo sapiens, UniProt Q9UEW8); target engagement, competitive chemoproteomics; human PBMCs; 10 µM): 9.6%
CC1=NN(c2ccccn2)C(=O)C1=NNc1ccc(S(N)(=O)=O)cc1  inhibition (Alpha-amylase; enzyme activity, inhibitor, glucose oxidase; 500 µg/mL, with: dextrin): 19%
O=C(CN1C(=O)Cc2c([nH]c3ccc(Br)cc23)-c2ccc(Cl)cc21)Nc1nncs1  inhibition (Trypanothione synthetase; enzyme activity, inhibitor, BIOMOL Green; 30 µM): 18.8 ± 3.3%
NC/C(=C\F)COc1cccc(Cn2c(=S)[nH]c(=O)c3[nH]cnc32)c1  inhibition (MAOA (Homo sapiens, UniProt P21397); enzyme activity; 0.0002 µM): 3.37%
CCCCCCNc1[nH]c(=O)[nH]c(=O)c1N=O  inhibition (FFAR4; antagonist, β-arrestin recruitment; CHO cells; 10 µM): 13 ± 3%
Cc1ccc(C(=O)Nc2ccc3ccccc3c2)o1  inhibition (HVCN1 (Homo sapiens, UniProt Q96D96); ion current, inhibitor, whole-cell patch clamp; 10 µM): 12.1% and 9.52% and 0.7% and 4.83% and 7.22%
CCc1nn(C)c2nc(-c3ccc(C(=O)O)cc3)nc(NCc3ccc(F)cc3)c12  inhibition (PDE8A (Homo sapiens, UniProt O60658); enzyme activity; 10 µM, with: [3H]cAMP): 32.9%
O=C(C[C@@H](C(F)F)n1ccc(F)n1)N1CCC(O)(Cn2cnc3c(cnn3-c3ccc(F)cc3)c2=O)CC1  inhibition (USP7 (Homo sapiens, UniProt Q93009, V517F); enzyme activity, inhibitor; 50 µM): 66.2% and 74.1%
COc1cc(Cl)c(C(=O)N[C@@H](CN[C@H]2CC[C@@H](N)CC2)Cc2ccc(C#N)cc2)cc1-c1ccc(CN[C@H](C)c2ccc(C)cc2)o1  inhibition (HRH1; agonist response, antagonist; human cells; 10 µM, H1 antagonist): 18%

Some of these lines once more:
Cn1cc(-c2cnc3ccc(NC(=O)Nc4ccc(F)c(Br)c4)cc3n2)cn1  inhibition (TBK1 (Homo sapiens, UniProt Q9UHD2); kinase binding, KiNativ profiling, measured: Lys1 peptide; PANC-1 lysate; 5 µM): 4%
O=C(C[C@@H](C(F)F)n1ccc(F)n1)N1CCC(O)(Cn2cnc3c(cnn3-c3ccc(F)cc3)c2=O)CC1  inhibition (USP7 (Homo sapiens, UniProt Q93009, V517F); enzyme activity, inhibitor; 50 µM): 66.2% and 74.1%
COc1cc(Cl)c(C(=O)N[C@@H](CN[C@H]2CC[C@@H](N)CC2)Cc2ccc(C#N)cc2)cc1-c1ccc(CN[C@H](C)c2ccc(C)cc2)o1  inhibition (HRH1; agonist response, antagonist; human cells; 10 µM, H1 antagonist): 18%
